Assay results pooled from the literature.
Compare with care: the assays were run in different laboratories. Values joined by “and” are separate records of one study, mostly repeats; a detail may differ. ± gives the spread as reported.
FAAH: Fatty-acid amide hydrolase 1 (FAAH, Homo sapiens, UniProt O00519)
Sequence of UniProt O00519 (whole entry, looked up): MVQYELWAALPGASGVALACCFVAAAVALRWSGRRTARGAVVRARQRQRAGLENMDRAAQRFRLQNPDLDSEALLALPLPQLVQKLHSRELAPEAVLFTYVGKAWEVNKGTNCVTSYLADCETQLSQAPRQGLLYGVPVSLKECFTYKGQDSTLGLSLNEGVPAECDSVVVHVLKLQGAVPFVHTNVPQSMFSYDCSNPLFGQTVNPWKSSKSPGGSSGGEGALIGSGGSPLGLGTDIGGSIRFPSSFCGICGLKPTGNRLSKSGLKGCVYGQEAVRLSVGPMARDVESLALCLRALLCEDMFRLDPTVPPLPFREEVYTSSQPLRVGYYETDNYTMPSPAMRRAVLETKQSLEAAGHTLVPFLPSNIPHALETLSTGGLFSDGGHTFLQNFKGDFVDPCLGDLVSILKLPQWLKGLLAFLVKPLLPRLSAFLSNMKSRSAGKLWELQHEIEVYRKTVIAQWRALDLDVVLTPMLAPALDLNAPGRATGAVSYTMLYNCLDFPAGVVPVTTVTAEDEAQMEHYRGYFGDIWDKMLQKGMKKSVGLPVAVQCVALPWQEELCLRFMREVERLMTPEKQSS
ABCC1: Multidrug resistance-associated protein 1 (ABCC1, Homo sapiens, UniProt P33527)
Sequence of UniProt P33527 (whole entry, looked up): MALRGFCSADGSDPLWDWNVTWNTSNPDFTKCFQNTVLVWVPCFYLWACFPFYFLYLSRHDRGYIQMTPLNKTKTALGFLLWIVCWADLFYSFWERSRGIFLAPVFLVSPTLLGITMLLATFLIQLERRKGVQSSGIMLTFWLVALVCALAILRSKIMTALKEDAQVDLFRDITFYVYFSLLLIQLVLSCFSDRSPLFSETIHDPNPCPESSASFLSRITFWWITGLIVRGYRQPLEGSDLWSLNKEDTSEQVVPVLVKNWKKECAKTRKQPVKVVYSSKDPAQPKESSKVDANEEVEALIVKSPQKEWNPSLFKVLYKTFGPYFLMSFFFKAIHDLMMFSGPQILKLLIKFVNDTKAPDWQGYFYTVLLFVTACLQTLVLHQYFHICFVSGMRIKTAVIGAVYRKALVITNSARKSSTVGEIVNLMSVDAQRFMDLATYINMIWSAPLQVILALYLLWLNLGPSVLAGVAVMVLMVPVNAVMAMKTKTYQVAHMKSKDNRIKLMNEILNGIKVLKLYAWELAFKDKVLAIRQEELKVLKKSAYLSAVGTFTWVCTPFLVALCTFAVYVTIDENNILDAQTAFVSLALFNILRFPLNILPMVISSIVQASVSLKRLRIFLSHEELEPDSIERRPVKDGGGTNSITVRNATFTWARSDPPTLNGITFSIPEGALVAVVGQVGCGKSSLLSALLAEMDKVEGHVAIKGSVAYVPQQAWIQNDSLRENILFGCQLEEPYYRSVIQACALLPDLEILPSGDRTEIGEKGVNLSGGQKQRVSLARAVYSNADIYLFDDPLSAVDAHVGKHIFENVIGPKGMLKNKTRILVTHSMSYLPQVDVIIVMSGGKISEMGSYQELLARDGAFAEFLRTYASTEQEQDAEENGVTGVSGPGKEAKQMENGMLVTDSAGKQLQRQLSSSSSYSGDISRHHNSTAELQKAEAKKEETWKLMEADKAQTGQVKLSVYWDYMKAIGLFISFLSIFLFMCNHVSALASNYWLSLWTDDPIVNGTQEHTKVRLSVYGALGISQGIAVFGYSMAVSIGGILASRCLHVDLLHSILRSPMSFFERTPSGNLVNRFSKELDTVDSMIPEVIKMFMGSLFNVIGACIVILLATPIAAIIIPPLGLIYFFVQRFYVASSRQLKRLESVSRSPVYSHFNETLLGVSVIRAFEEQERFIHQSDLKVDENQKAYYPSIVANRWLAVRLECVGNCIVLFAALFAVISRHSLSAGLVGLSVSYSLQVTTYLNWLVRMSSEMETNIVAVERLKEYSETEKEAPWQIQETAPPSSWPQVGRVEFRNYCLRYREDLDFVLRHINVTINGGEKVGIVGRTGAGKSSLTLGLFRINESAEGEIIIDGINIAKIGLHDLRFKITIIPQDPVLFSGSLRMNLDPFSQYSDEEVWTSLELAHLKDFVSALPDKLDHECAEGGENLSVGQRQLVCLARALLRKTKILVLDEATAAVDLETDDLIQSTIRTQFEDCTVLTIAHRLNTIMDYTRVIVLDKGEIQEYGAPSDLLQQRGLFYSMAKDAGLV
CXCR4: C-X-C chemokine receptor type 4 (CXCR4, Homo sapiens, UniProt P61073)
Sequence of UniProt P61073 (whole entry, looked up): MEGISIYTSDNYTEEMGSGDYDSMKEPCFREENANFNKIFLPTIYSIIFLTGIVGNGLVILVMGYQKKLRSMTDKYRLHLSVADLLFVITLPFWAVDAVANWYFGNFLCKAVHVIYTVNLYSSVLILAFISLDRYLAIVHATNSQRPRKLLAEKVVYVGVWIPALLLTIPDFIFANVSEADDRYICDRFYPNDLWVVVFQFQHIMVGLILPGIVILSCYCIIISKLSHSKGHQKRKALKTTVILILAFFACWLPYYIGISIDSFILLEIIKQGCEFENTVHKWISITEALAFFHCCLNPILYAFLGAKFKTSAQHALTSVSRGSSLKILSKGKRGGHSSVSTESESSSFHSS
PARP1: Poly [ADP-ribose] polymerase 1 (PARP1, Homo sapiens, UniProt P09874)
Sequence of UniProt P09874 (whole entry, looked up): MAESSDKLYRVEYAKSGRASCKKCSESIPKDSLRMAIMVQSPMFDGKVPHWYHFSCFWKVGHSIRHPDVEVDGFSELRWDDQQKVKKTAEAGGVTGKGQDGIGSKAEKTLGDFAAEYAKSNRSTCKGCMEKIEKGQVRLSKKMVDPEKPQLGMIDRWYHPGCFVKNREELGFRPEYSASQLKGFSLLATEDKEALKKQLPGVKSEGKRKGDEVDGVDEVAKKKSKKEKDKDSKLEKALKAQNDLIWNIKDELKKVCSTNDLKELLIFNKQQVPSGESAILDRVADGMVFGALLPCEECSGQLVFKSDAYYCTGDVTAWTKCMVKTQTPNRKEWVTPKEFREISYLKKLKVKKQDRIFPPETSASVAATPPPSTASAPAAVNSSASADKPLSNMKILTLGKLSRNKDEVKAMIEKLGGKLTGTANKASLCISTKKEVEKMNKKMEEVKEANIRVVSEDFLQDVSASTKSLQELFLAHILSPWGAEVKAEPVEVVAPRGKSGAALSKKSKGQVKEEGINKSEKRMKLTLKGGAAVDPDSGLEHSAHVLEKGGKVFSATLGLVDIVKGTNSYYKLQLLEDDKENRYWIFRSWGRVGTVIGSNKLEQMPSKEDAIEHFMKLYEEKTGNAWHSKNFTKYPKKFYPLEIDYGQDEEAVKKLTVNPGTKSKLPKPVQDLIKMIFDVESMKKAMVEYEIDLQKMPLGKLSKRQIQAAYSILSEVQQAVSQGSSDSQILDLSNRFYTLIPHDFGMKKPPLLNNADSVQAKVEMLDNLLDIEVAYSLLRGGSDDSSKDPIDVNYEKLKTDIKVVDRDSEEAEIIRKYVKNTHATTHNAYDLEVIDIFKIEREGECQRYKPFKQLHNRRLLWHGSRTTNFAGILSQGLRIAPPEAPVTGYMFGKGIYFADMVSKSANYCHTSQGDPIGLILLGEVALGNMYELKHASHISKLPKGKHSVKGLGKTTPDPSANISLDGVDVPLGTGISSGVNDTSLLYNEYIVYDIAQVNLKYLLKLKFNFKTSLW
CELA1: Chymotrypsin-like elastase family member 1 (CELA1, Sus scrofa, UniProt P00772)
Sequence of UniProt P00772 (whole entry, looked up): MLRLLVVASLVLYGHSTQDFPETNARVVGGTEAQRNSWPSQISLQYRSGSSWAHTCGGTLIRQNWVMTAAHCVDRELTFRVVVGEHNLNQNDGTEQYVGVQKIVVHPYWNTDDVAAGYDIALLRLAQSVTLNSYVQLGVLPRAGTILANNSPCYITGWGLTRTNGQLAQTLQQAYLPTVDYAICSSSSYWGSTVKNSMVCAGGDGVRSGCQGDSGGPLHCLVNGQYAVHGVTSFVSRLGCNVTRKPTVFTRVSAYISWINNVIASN
Sequence of UniProt P04798 (whole entry, looked up): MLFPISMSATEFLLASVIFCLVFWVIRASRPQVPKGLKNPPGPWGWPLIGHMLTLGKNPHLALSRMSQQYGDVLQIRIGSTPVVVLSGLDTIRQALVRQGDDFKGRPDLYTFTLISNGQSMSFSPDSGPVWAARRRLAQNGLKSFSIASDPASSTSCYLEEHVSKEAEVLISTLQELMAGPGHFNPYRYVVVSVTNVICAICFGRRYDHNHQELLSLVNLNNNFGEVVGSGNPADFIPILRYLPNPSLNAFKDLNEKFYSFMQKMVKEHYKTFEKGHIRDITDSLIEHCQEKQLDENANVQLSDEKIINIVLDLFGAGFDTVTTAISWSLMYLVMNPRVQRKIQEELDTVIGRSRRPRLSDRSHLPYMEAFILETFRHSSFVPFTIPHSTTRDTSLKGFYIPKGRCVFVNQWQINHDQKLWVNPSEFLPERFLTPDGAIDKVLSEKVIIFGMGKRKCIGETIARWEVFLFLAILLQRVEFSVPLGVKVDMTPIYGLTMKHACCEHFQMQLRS
Sequence of UniProt Q13304 (whole entry, looked up): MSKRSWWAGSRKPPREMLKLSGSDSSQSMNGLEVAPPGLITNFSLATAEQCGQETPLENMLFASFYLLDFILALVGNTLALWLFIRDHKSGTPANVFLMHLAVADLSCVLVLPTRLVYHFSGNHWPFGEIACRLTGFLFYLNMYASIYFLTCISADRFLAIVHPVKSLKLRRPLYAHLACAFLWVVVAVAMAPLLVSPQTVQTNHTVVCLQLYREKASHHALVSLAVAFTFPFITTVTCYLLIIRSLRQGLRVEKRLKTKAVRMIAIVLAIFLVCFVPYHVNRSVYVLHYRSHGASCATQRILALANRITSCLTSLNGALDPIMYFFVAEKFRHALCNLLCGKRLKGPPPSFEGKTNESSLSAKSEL
Sequence of UniProt Q91ZH7 (whole entry, looked up): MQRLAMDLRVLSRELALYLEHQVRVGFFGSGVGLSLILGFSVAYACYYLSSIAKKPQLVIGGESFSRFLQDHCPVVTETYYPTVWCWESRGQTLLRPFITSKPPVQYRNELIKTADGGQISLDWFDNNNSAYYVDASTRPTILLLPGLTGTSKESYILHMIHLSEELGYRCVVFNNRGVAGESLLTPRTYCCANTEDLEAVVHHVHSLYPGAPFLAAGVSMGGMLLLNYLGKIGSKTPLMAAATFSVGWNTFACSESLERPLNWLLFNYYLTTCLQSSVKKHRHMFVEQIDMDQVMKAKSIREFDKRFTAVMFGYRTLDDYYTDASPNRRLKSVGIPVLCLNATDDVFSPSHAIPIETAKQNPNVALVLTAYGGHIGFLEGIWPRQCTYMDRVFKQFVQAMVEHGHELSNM

| SMILES | target | test | test system | conditions | IC50 |
| --- | --- | --- | --- | --- | --- |
| COCC(=O)O[C@]1(CCN(C)CCCc2nc3ccccc3[nH]2)CCc2cc(F)ccc2[C@@H]1C(C)C | CatSper channel complex (Homo sapiens, UniProt Q7RTX7+Q86XQ3+Q8NEC5+Q96P56) | calcium influx, inhibitor | human sperm | pH 8.2, added: 140 mM K+ | 17.4 µM |
| O=c1cc(N2CCOCC2)oc2c(OCc3cccnc3)cccc12 | Phosphatidylinositol 4,5-bisphosphate 3-kinase catalytic subunit beta isoform (PIK3CB, Homo sapiens, UniProt P42338, D862Q) | enzyme activity, inhibitor | – | – | 1.1 µM |
| COC(=O)c1ccc(O)cc1 | FAAH | enzyme activity, inhibitor, fluorimetric | – | 60 min preincubation, recombinant enzyme, added: OMP substrate 50 µM | > 100 µM |
| COC(=O)C1=C(C)NC(C)=C(C(=O)OCCN(C)Cc2ccccc2)C1c1cccc([N+](=O)[O-])c1 (centres unmarked) | ABCC1 | substrate efflux, inhibitor, flow cytometry | ABCC1-overexpressing SupT1-Vin cells | added: BODIPY-FL-vinblastine 500 nM | 1.8 ± 1.4 µM |
| Cn1c(=O)c(=O)n(C)c2cc(S(=O)(=O)NNC(=O)NCc3ccccc3)ccc21 | Dipeptidyl peptidase 4 (DPP4, Homo sapiens, UniProt P27487) | enzyme activity, inhibitor, fluorescence | – | – | 4.8e-05 µM |
| c1nc2c(NCc3ccc(CNCCCNC4CCCCC4)cc3)nc(N3CCC(C4CCNCC4)CC3)nc2[nH]1 | CXCR4 | ligand displacement, radioligand | – | cell membranes | 0.0516 µM |
| CN1CCC2(CC1)c1ccccc1N(Cc1ccc(C(=O)NO)s1)C2c1ccc(Cl)cc1 (centres unmarked) | Histone deacetylase 8 (Schistosoma mansoni, UniProt A5H660) | enzyme activity, inhibitor, Fluor-de-Lys | – | varied substrate concentration, added: Fluor-de-Lys substrate 50 µM | 0.11 ± 0.011 µM |
| COc1cccc2cc(-c3nnc(SCC(=O)Nc4ccc(Cl)cc4)n3-c3ccccc3)oc12 | fungal tyrosinase | enzyme activity, inhibitor, dopachrome absorbance | – | pH 6.8, 37 °C, added: L-tyrosine substrate | 4.88 ± 1.14 µM |
| O=C(Nc1ccc(Sc2ccc(N=Nc3c(O)c(S(=O)(=O)O)cc4cc(S(=O)(=O)O)ccc34)cc2)cc1)c1ccc(N=Nc2c(O)ccc3c(S(=O)(=O)O)cc(S(=O)(=O)O)cc23)cc1 | DNA topoisomerase 1 (topA, Escherichia coli, UniProt P06612) | enzyme activity, inhibitor | – | – | ~2.2 µM |
| C#Cc1ccc2c(C)c(C)c(=O)oc2c1C | Cytochrome P450 1A1 (CYP1A1, Homo sapiens, UniProt P04798) | enzyme activity, inhibitor, fluorescence | – | 6 min, pH 7.6 | 0.5 µM and 0.46 µM |
| C[C@@H](CNCc1ccccc1)N1C[C@H](CCCNC(=N)N)N(CCc2cccc(F)c2)C1=S | Prolactin-releasing peptide receptor (PRLHR, Homo sapiens, UniProt P49683) | receptor activation, antagonist, FLIPR | – | – | > 10 µM |
| O=C(CSc1nc2ccccc2c(=O)n1-c1ccccc1)Nc1ccc(S(=O)(=O)NC(=O)Nc2ccccc2)cc1 | PARP1 | enzyme activity, inhibitor, absorbance | – | – | 0.13 µM |
| CCc1ccc(OC)cc1-n1c(C=C(C)C)c(C(=O)N2CCNCC2)cc(-c2nc(-c3ccc(Cl)cc3)cs2)c1=O (single isomer, unassigned) | Isocitrate dehydrogenase [NADP] cytoplasmic (IDH1, Homo sapiens, UniProt O75874, R132C) | enzyme activity, inhibitor | – | – | 0.67 µM |
| CC1=C(COc2cccc(C(F)(F)F)c2)C(=O)c2ccccc2C1=O | Thioredoxin reductase 1, cytoplasmic (TXNRD1, Homo sapiens, UniProt Q16881) | enzyme activity, inhibitor | – | pH 7.4, with preincubation | 3 µM |
| COc1ccc2c(NC3CCNCC3)nc(NCc3ccc(CNCCCNC4CCCCCC4)cc3)nc2c1 | CXCR4 | ligand displacement, radioligand | – | cell membranes | 0.0128 µM and ~0.01 µM |
| Cn1ccnc1C(=O)C1CC1c1ccc(CC(=O)Nc2ccc(Br)cc2)cc1 (centres unmarked) | Histone deacetylase 8 (HDAC8, Homo sapiens, UniProt Q9BY41) | enzyme activity, inhibitor | – | – | 8.5 µM |
| O=C(NCc1ccc(F)cc1)C1CCN(S(=O)(=O)c2cc(Cl)cc(Cl)c2)CC1 | Na(+)/citrate cotransporter (Homo sapiens, UniProt Q86YT5) | citrate uptake, inhibitor | HepG2 | 30 min preincubation, inhibitor also during uptake | 0.118 ± 0.022 µM |
| O=C(ON1C(=O)C2CN(Cc3ccc(Oc4ccccc4)cc3)CCN2C1=O)N1CCC(c2ccccc2)CC1 (centres unmarked) | Phospholipase ABHD3 (Abhd3, Mus musculus, UniProt Q91ZH7) | inhibitor, competitive gel-based ABPP, item: ABHD3 | mouse, transfected HEK293T cell lysate | added: FP-rhodamine probe | 0.13 µM |
| O=C(O[C@@H]1Cc2c(O)cc(O)cc2O[C@@H]1c1cc(O)c(O)c(O)c1)c1cc(O)c(O)c(O)c1 | CELA1 | enzyme activity, inhibitor | – | 5 min, pH 8.0, 25 °C, added: N-succinyl-Ala-Ala-Ala-p-nitroanilide 1 mM | 209 ± 7 µg/mL |

| SMILES | target | test | test system | conditions | IC50 |
| --- | --- | --- | --- | --- | --- |
| CCCCCCCCCCCC[N+](C)(C)CCOc1ccccc1 | Calmodulin-1, with adenylyl cyclase 8 (CALM1, Homo sapiens, UniProt P0DP23) | AC8-calmodulin interaction, NanoBiT complementation | HEK-293T | 30 min pretreatment, added: rat AC8 | 6.31 µM |
| O=C1NC(=O)c2cc(Nc3ccc(F)cc3)c(Nc3ccc(F)cc3)cc21 | Proteasome Macropain subunit MB1 (PSMB5, Homo sapiens, UniProt P28074) | enzyme activity | – | added: Suc-LLVY-AMC substrate, ATP | > 30 µM |
| O=C(NC1CCCCC1)OCc1cn(Cc2c(F)cccc2F)nn1 | FAAH | enzyme activity, inhibitor, fluorescence | – | cell membranes | 0.812 µM |
| O=S(=O)(c1cc(C(=S)Nc2cc(F)c(F)c(F)c2)c(Cl)cc1Cl)N1CCOCC1 | Lysophosphatidic acid receptor 4 (LPAR4, Homo sapiens, UniProt Q99677) | Ca2+ mobilization, antagonist | CHO | added: LPA at EC50 | > 100 µM |
| NC(=S)c1ccncc1 | Urea transporter 2 (Rattus norvegicus, UniProt Q62668) | urea transport, inhibitor | MDCK expressing rat UT-A1 | 20 min | > 15000 µM |
| N#Cc1c(-c2ccc(Cl)cc2)cc(-c2ccc(NC(=O)CSc3nc4ccccc4c(=O)n3-c3ccccc3)cc2)nc1N | PARP1 | enzyme activity, inhibitor, absorbance | – | – | 0.155 µM |
| O=c1[nH]c2ccccc2n1C1CCN(CCCC(c2ccc(F)cc2)c2ccc(F)cc2)CC1 | ABCC1 | efflux, inhibitor, flow cytometry | SupT1 cells overexpressing ABCC1 | added: ER-Tracker Green 500 nM | 12.9 ± 9.1 µM |
| NC(=O)c1cccc2c1OC[C@H](CO)O2 | PARP1 | – | – | – | > 5 µM |
| CN(C)C/C=C/C(=O)Nc1cccc(S(=O)(=O)N2CCC(NC(=O)c3n[nH]cc3NC(=O)c3c(Cl)cc(Cl)cc3Cl)CC2)c1 | Cyclin-dependent kinase 2 (CDK2, Homo sapiens, UniProt P24941) | target engagement in cells, BRET | – | – | 0.256 µM |
| CC(=O)Nc1ccc(NC(=S)NC(=O)c2ccc(C(C)(C)C)cc2)cc1 | NAD-dependent protein deacetylase sirtuin-3, mitochondrial (SIRT3, Homo sapiens, UniProt Q9NTG7) | – | – | – | > 300 µM |
| O=C(O)c1ccc(OCCCc2ccc(OCCCCOC3CCCCC3)cc2)c(C(=O)NC2CCCC(C(=O)O)C2)c1 (centres unmarked) | Uracil nucleotide/cysteinyl leukotriene receptor, long isoform (GPR17, Homo sapiens, UniProt Q13304) | beta-arrestin recruitment, antagonist, PathHunter | U2OS | – | 14.6 µM |
| COc1ccc(C2Oc3c(cccc3C(N)=O)NC2=O)cc1 (centres unmarked) | PARP1 | – | – | – | 0.8 ± 0.15 µM |
| CCCC(=O)N[C@@H](C)C(=O)N[C@H](C(=O)N[C@@H]1C(=O)N[C@@H](CC(C)C)C(=O)N[C@H]2CC[C@@H](O)N(C2=O)[C@@H](Cc2ccccc2)C(=O)N(C)[C@@H](Cc2ccc(O)cc2)C(=O)N[C@@H](C(C)C)C(=O)O[C@@H]1C)[C@H](C)O | CELA1 | enzyme activity, inhibitor | – | with preincubation | 0.24 µM |
| Nc1nc(Nc2ccc3c(c2)CC[C@@H](N2CCCC2)CC3)nn1-c1cc2c(nn1)-c1ccccc1CCC2 | DNA topoisomerase 1 (TOP1, Homo sapiens, UniProt P11387) | enzyme activity, inhibitor | – | – | 75.8 µM |
| COc1cc(/C=C/C(=O)O)ccc1O | Cell division cycle 7-related protein kinase, with DBF4 (CDC7, Homo sapiens, UniProt O00311) | enzyme activity, inhibitor, ADP-Glo luminescence | – | added: ATP 12.5 µM | 13.2 ± 3.9 µM |
| COc1ccc(-c2csc(NN=Cc3ccccn3)n2)cc1 | Microtubule-associated protein tau (MAPT, Homo sapiens, UniProt P10636) | ligand displacement, radioligand | – | – | > 10 µM |
| O=C(CCc1ccccc1)c1ccccc1OCC(O)CN1CCN(c2ccc(F)cc2)CC1 (centres unmarked) | ATP-dependent translocase ABCB1 (ABCB1, Homo sapiens, UniProt P08183, Q773R) | – | – | – | 0.04 µM |
| CCCN1CCC(c2cccc(S(C)(=O)=O)c2)CC1 | Cytochrome P450 2D6 (CYP2D6, Homo sapiens, UniProt P10635) | enzyme activity, inhibitor | human, liver microsomes | 3 h, pH 7.4, with preincubation | 3.9 µM |
| O=C(O)C(Cc1ccccc1)[C@@H]1CCN[C@H]1C(=O)O (relative stereo) | AMPA receptor, rat | binding | cortical synaptosomes | added: [3H]-AMPA | > 100 µM |

Excerpt of the above:
| SMILES | target | test | test system | conditions | IC50 |
| --- | --- | --- | --- | --- | --- |
| O=S(=O)(c1cc(C(=S)Nc2cc(F)c(F)c(F)c2)c(Cl)cc1Cl)N1CCOCC1 | Lysophosphatidic acid receptor 4 (LPAR4, Homo sapiens, UniProt Q99677) | Ca2+ mobilization, antagonist | CHO | added: LPA at EC50 | > 100 µM |
| NC(=S)c1ccncc1 | Urea transporter 2 (Rattus norvegicus, UniProt Q62668) | urea transport, inhibitor | MDCK expressing rat UT-A1 | 20 min | > 15000 µM |
| N#Cc1c(-c2ccc(Cl)cc2)cc(-c2ccc(NC(=O)CSc3nc4ccccc4c(=O)n3-c3ccccc3)cc2)nc1N | PARP1 | enzyme activity, inhibitor, absorbance | – | – | 0.155 µM |
| O=c1[nH]c2ccccc2n1C1CCN(CCCC(c2ccc(F)cc2)c2ccc(F)cc2)CC1 | ABCC1 | efflux, inhibitor, flow cytometry | SupT1 cells overexpressing ABCC1 | added: ER-Tracker Green 500 nM | 12.9 ± 9.1 µM |
